Measured values from different studies.
Lines come from different studies, so protocols differ. Values joined by “and” are separate records of one study, mostly repeats; a detail may differ. ± marks the error that the study gave. Values after ≈ are worked out from the molar mass of the structure shown.

With C[C@H](NP(=O)(Nc1ccn([C@H]2CS[C@@H](CO)O2)c(=O)n1)N[C@@H](C)C(=O)OCc1ccccc1)C(=O)OCc1ccccc1 the EC50 was 400 ± 330 nM (HIV-2; viral replication; CCRF-CEM, ROD; 4 d).
CS(=O)(=O)NC(=O)CCc1cn(-c2ccc(Br)cc2)nc1-c1ccc(Cl)cc1 has an MIC of 4 µM (≈ 1.93 µg/mL) (Mycobacterium tuberculosis; OD600; cyd deletion mutant).
The MIC of CC[C@H](C)[C@H](NC(=O)[C@H](Cc1c[nH]c2ccccc12)NC(=O)[C@H](CCCCN)NC(=O)[C@H](CCCCN)NC(=O)[C@H](CC(C)C)NC(=O)[C@H](Cc1c[nH]c2ccccc12)NC(=O)[C@H](CCCCN)NC(=O)[C@@H](N)Cc1c[nH]c2ccccc12)C(=O)N[C@@H](CCCCN)C(N)=O is reported as 10 µM (≈ 13.1 µg/mL) (Bacillus anthracis; 34F2 Sterne, LB medium; 24 h, 37 °C).
With Cc1cc(/C=C/C#N)cc(C)c1Oc1nc(NC2CCN(Cc3ccc(P(C)(C)=O)cc3)CC2)nc2ccsc12 the potency ratio was about 262 fold (Human immunodeficiency virus 1; viral replication; MT-4, Y188L mutant; reference: doravirine EC50 over compound EC50).
The antimicrobial activity of CSCC[C@@H]1NC(=O)[C@H](CC(C)C)NC(=O)[C@H](CCCNC(=N)N)NC(=O)[C@H](CO)NC(=O)[C@@H]2CSSC[C@@H]3NC(=O)[C@H](CO)NC(=O)CNC(=O)[C@H]([C@@H](C)O)NC(=O)[C@H](CSSC[C@H](N)C(=O)N[C@@H](CCCCN)C(=O)NCC(=O)N[C@@H](CCCCN)C(=O)NCC(=O)N[C@@H](C)C(=O)N[C@@H](CCCCN)C(=O)N2)NC(=O)[C@H](CSSC[C@@H](C(N)=O)NC(=O)[C@H](CCCCN)NC(=O)CNC(=O)[C@H](CO)NC(=O)[C@H](CCCNC(=N)N)NC3=O)NC(=O)[C@H](CC(=O)O)NC(=O)[C@H](Cc2ccc(O)cc2)NC1=O is reported as over 0.5 mM (Staphylococcus aureus, Pseudomonas aeruginosa, Escherichia coli; inactive up to this concentration).
O=C(NN1C(=O)[C@@H]2[C@@H]3C=C[C@@H]([C@H]4C[C@@H]34)[C@@H]2C1=O)c1ccc(C(F)(F)F)cc1 — result for “lung viral titre”: 2.78 log10 TCID50/g and 3.41 log10 TCID50/g and 3.37 log10 TCID50/g (monkeypox virus; mice; oral, 50 mg/kg once daily, day 10).
The MIC of O=C(Nc1ccc([N+](=O)[O-])cc1)Nc1ccc(S(=O)(=O)Nc2ccc(Cl)c(Cl)c2)cc1 is reported as 2.8 µM (≈ 1.35 µg/mL) (Bacillus anthracis; Sterne, Mueller-Hinton medium).
CC[C@H](C)[C@H](NC(=O)[C@H](Cc1ccc(O)cc1)NC(=O)[C@H](CO)NC(=O)[C@H](CCC(=O)O)NC(=O)[C@H](CC(N)=O)NC(=O)[C@H](CC(C)C)NC(=O)[C@H](C)NC(=O)[C@H](CCCCN)NC(=O)[C@@H](NC(=O)[C@@H](NC(=O)[C@H](CCC(N)=O)NC(=O)[C@H](CCC(N)=O)NC(=O)[C@H](CC(C)C)NC(=O)[C@H](CO)NC(=O)[C@H](CC(C)C)NC(=O)[C@H](CCSC)NC(=O)[C@H](CCC(=O)O)NC(=O)[C@H](Cc1ccc(O)cc1)NC(=O)[C@@H](NC(=O)[C@H](CC(C)C)NC(=O)[C@H](CC(=O)O)NC(=O)[C@H](CC(C)C)NC(=O)[C@H](CC(C)C)NC(=O)[C@@H](NC(=O)[C@@H](NC(=O)[C@H](CC(N)=O)NC(=O)[C@@H](NC(=O)[C@H](CCC(N)=O)NC(=O)[C@@H](NC(=O)[C@H](CC(C)C)NC(=O)[C@@H](N)CO)[C@@H](C)O)[C@@H](C)CC)[C@@H](C)O)[C@@H](C)O)[C@@H](C)O)C(C)C)C(C)C)C(=O)N[C@@H](CC(=O)O)C(=O)N[C@@H](CC(C)C)C(=O)N[C@@H](CCCCN)C(=O)N[C@@H](CCC(=O)O)C(=O)N[C@@H](CC(C)C)C(=O)O has an IC50 of ~600 nM and 600 nM (MERS-CoV; viral replication, CPE MTT; Vero).
NC12CC3CC(CC(C3)C1)C2 has an EC50 of under 1000 nM (Influenza A virus; viral replication; MDCK, A/Swine/Minnesota/34-0818/2011 (H1N2)).
CC(C)[C@H](NC(=O)[C@H](Cc1c[nH]c2ccccc12)NC(=O)[C@H](CCCNC(=N)N)NC(=O)[C@H](Cc1c[nH]c2ccccc12)NC(=O)[C@H](Cc1c[nH]c2ccccc12)NC(=O)[C@H](CCCNC(=N)N)NC(=O)[C@@H](N)CCCNC(=N)N)C(=O)N[C@H](C(=O)N[C@@H](Cc1c[nH]c2ccccc12)C(N)=O)C(C)C has an MIC of 20 µM (≈ 28.6 µg/mL) (Bacillus anthracis; 34F2 Sterne, LB medium; 24 h, 37 °C).
The MIC50 of Nc1c(C(=O)Nc2cc(Cl)ccc2Cl)sc2nc(-c3cccs3)ccc12 is reported as 20 µM (≈ 8.41 µg/mL) (Bacillus anthracis; Sterne).
For CCC(C(=O)Nc1sc(C(N)=O)c(C)c1C(=O)OC)c1ccc(F)cc1 (stereo not drawn), the EC50 was 13200 ± 2900 nM (vaccinia virus mD4 surrogate; viral replication, plaque; BSC-1; 24 h).
N=C(N)NCCC[C@H](NC(=O)[C@H](CCCNC(=N)N)NC(=O)[C@H](Cc1c[nH]c2ccccc12)NC(=O)[C@H](Cc1c[nH]c2ccccc12)NC(=O)[C@H](CCCCN)NC(=O)[C@H](Cc1c[nH]c2ccccc12)NC(=O)[C@H](Cc1c[nH]c2ccccc12)NC(=O)[C@H](CCCNC(=N)N)NC(=O)[C@@H](N)CCCCN)C(N)=O has an MIC of 10 µM (≈ 14.9 µg/mL) (Mycobacterium bovis; isoniazid-resistant mutant, broth with pyruvate; 48 h, 37 °C).
For CC(=O)N1C[C@@H](COP(=O)(N(C)C)N2C[C@@H](COP(=O)(N(C)C)N3C[C@@H](COP(=O)(N(C)C)N4C[C@@H](COP(=O)(N(C)C)N5C[C@@H](COP(=O)(N(C)C)N6C[C@@H](COP(=O)(N(C)C)N7C[C@@H](COP(=O)(N(C)C)N8C[C@@H](COP(=O)(N(C)C)N9C[C@@H](COP(=O)(N(C)C)N%10C[C@@H](COP(=O)(N(C)C)N%11C[C@@H](COP(=O)(N(C)C)N%12C[C@@H](COP(=O)(N(C)C)N%13C[C@@H](COP(=O)(N(C)C)N%14C[C@@H](COP(=O)(N(C)C)N%15C[C@@H](COP(=O)(N(C)C)N%16C[C@@H](COP(=O)(N(C)C)N%17C[C@@H](COP(=O)(N(C)C)N%18C[C@@H](COP(=O)(N(C)C)N%19C[C@@H](COP(=O)(N(C)C)N%20C[C@@H](COP(=O)(N(C)C)N%21C[C@@H](COP(=O)(N(C)C)N%22C[C@@H](COP(=O)(N(C)C)N%23C[C@@H](COP(=O)(N(C)C)N%24CCN(C(=O)CCCN%25C(=O)CC(SC[C@H](NC(=O)[C@H](CCCNC(=N)N)NC(=O)[C@H](CCCNC(=N)N)NC(=O)[C@H](CCCNC(=N)N)NC(=O)[C@H](CCCNC(=N)N)NC(=O)[C@H](Cc%26ccccc%26)NC(=O)[C@H](Cc%26ccccc%26)NC(=O)[C@H](CCCNC(=N)N)NC(=O)[C@H](CCCNC(=N)N)NC(=O)[C@H](CCCNC(=N)N)NC(=O)[C@H](CCCNC(=N)N)NC(=O)[C@@H](N)CCCNC(=N)N)C(N)=O)C%25=O)CC%24)O[C@@H](n%24cnc%25c(=O)[nH]c(N)nc%25%24)C%23)O[C@@H](n%23cc(C)c(=O)[nH]c%23=O)C%22)O[C@@H](n%22ccc(N)nc%22=O)C%21)O[C@@H](n%21cnc%22c(N)ncnc%22%21)C%20)O[C@@H](n%20cc(C)c(=O)[nH]c%20=O)C%19)O[C@@H](n%19ccc(N)nc%19=O)C%18)O[C@@H](n%18cc(C)c(=O)[nH]c%18=O)C%17)O[C@@H](n%17cc(C)c(=O)[nH]c%17=O)C%16)O[C@@H](n%16cnc%17c(=O)[nH]c(N)nc%17%16)C%15)O[C@@H](n%15ccc(N)nc%15=O)C%14)O[C@@H](n%14cnc%15c(=O)[nH]c(N)nc%15%14)C%13)O[C@@H](n%13ccc(N)nc%13=O)C%12)O[C@@H](n%12ccc(N)nc%12=O)C%11)O[C@@H](n%11cnc%12c(N)ncnc%12%11)C%10)O[C@@H](n%10cc(C)c(=O)[nH]c%10=O)C9)O[C@@H](n9cc(C)c(=O)[nH]c9=O)C8)O[C@@H](n8cc(C)c(=O)[nH]c8=O)C7)O[C@@H](n7cc(C)c(=O)[nH]c7=O)C6)O[C@@H](n6cc(C)c(=O)[nH]c6=O)C5)O[C@@H](n5cnc6c(=O)[nH]c(N)nc65)C4)O[C@@H](n4cc(C)c(=O)[nH]c4=O)C3)O[C@@H](n3cnc4c(=O)[nH]c(N)nc43)C2)O[C@@H](n2cnc3c(=O)[nH]c(N)nc32)C1 (stereo partly drawn), RTA-positive cells read “decreased” (Kaposi's sarcoma-associated herpesvirus; immunofluorescence; BC1 cells, EBV co-infected; concentration not given, added: TPA; reference: mock-treated).
With Nc1c(C(=O)Nc2cccc(F)c2)sc2nc(-c3cccs3)ccc12 the MIC50 was 80 µM (≈ 29.6 µg/mL) (Bacillus anthracis; Sterne).

A few entries again:
O=C(NN1C(=O)[C@@H]2[C@@H]3C=C[C@@H]([C@H]4C[C@@H]34)[C@@H]2C1=O)c1ccc(C(F)(F)F)cc1 — result for “lung viral titre”: 2.78 log10 TCID50/g and 3.41 log10 TCID50/g and 3.37 log10 TCID50/g (monkeypox virus; mice; oral, 50 mg/kg once daily, day 10).
The MIC of O=C(Nc1ccc([N+](=O)[O-])cc1)Nc1ccc(S(=O)(=O)Nc2ccc(Cl)c(Cl)c2)cc1 is reported as 2.8 µM (≈ 1.35 µg/mL) (Bacillus anthracis; Sterne, Mueller-Hinton medium).
